Measured values gathered from unrelated publications.
Lines come from different studies, so protocols differ. “And” joins repeats or separate records; there may be more than shown. ± gives the spread as reported. ≈ marks a conversion by molar mass, not a printed value.

| SMILES | organism | assay | test system | conditions | scale | endpoint | value |
| --- | --- | --- | --- | --- | --- | --- | --- |
| COc1cccc(C(O)C#Cc2ccc(O)c(OC)c2)c1 (stereo not shown) | Pseudomonas aeruginosa | static biofilm | PA14 | 10 µM, 24 h, static | relative to: DMSO | biofilm formation | 62% |
| CC(=O)NC[C@H]1CN(c2ccc(N3CCOCC3)c(F)c2)C(=O)O1 | Staphylococcus aureus | – | MRSA, 10 isolates | serum 75% | – | MIC50 | 4 µg/mL (≈ 11.9 µM) |
| COc1cccc(C(=O)C#Cc2ccc(O)c(OC)c2)c1 | Pseudomonas aeruginosa | RT-qPCR, refers to: rhlA | biofilm cells | 10 µM, 24 h | relative to: untreated | mRNA level | 46% |
| N=C(N)c1ccc(OCc2ccccc2COc2ccc(C(=N)N)cc2)cc1 | Escherichia coli | – | ATCC 25922 | concentration not given, added: rifampicin | – | MIC in combination | 25 µg/mL |
| OC(Cn1cncn1)(Cn1cncn1)c1ccc(F)cc1F | Cryptococcus neoformans | – | 129, RPMI 1640 | 24 h, 35 °C | – | MIC | 50 µM |
| Cc1ccccc1C(=O)C#Cc1ccc(F)c(F)c1 | Pseudomonas aeruginosa | static biofilm | PA14 | 10 µM, 24 h | relative to: DMSO | biofilm formation | 71% |
| C=CC[C@@H]1c2ccc(OC)c(OC)c2CN2CCc3cc4c(cc3[C@H]12)OCO4 | Staphylococcus aureus | – | P2rx7+/+ mice, skin wound infection | dose not given, day 5 | relative to: day 0 | relative wound size | 0.46 and 0.26 and 0.79 and 0.23 and 0.39 and 0.4 |
| Cc1cn([C@H]2C[C@H](N=[N+]=[N-])[C@@H](CO)O2)c(=O)[nH]c1=O | HIV-1 | virus-induced cytopathicity, XTT | CEM-SS cells, RF | 6 days | – | EC50 | 0.004 ± 0.0003 µM |
| c1ccc(-c2ccc3c(c2)NC(C2Nc4cc(-c5ccccc5)ccc4O2)O3)cc1 (stereo not shown) | Leishmania martiniquensis | parasite growth | THP-1-derived macrophages, intracellular amastigotes | 48 h | – | IC50 | 2.61 ± 1.22 µM |
| CCc1nc(N)nc(N)c1-c1ccc(Cl)cc1 | Toxoplasma gondii | [3H]uracil incorporation | human fibroblasts, RH wild type | 10 µM | – | parasite survival | 55.3% |
| CC(=Nc1ccc(N=Cc2cnccn2)cc1)N(C)C | Necator americanus | – | infected hamsters, small intestine | oral, 50 mg/kg single, 24 h | – | worm count | 0 |
| OC[C@H]1O[C@@H](O[C@@H]2[C@@H](O)[C@H](O[C@@H]3[C@@H](O)[C@H](O[C@H]4[C@H](O)[C@@H](CO)OC(O)[C@@H]4O)O[C@H](CO)[C@H]3O)O[C@H](CO)[C@H]2O)[C@H](O)[C@@H](O)[C@@H]1O (stereo partly shown) | Bacteroides uniformis | binding, ITC | – | pH 7.0, 25 °C, middle domain | – | -TΔS | -1.4 kcal/mol |
| [H]/N=C(/NCCCCC)N/N=C/c1c[nH]c2ccc(OC)cc12 | Toxoplasma gondii | parasite growth | HFF, bradyzoite, glutamine-induced | – | – | EC90 | 20.8 µM |
| Nc1nc(-c2ccccc2)nc2[nH]nc(Nc3ccc(C(F)(F)F)cc3)c12 | coxsackievirus B3 | – | 31-1-93, NMRI mice, CVB3 chronic myocarditis | oral, 100 mg/kg twice daily, day 10, dosed days 0 to 6, score scale 0 to 7 | direction not given | clinical score | 0.1 |
| CO[C@H]1/C=C/O[C@@]2(C)Oc3c(C)c(O)c4c(c3C2=O)C2=NC3(CCN(CC(C)C)CC3)NC2=C(NC(=O)/C(C)=C\C=C\[C@H](C)[C@H](O)[C@@H](C)[C@@H](O)[C@@H](C)[C@H](OC(C)=O)[C@@H]1C)C4=O | Mycobacteroides abscessus | bacterial growth | subsp. massiliense 095 clinical isolate | mixed morphotype | – | IC90 | 11.3 µM |
| CCCC(=O)OCSc1ccccc1C(=O)NCCn1cc(C(=O)OCC)c(=O)c2cc3c(cc21)OCO3 | HIV-1 | virus-induced cytopathic effect, inhibitor, XTT | CEM-SS, RF | 6 days | – | EC50 | 1.69 ± 0.46 µM |
| O=c1[nH]c(NCc2ccc(Cl)c(Cl)c2)nc2ncn(CCCCCN3CCOCC3)c12 | Clostridioides difficile | agar dilution anaerobic | ATCC 4381 | 48 h | – | MIC | 2 µg/mL |
| CC(C)n1ncc2c(C(=O)NCC3(C)CNC3)cc(C3CC3)nc21 | Enterovirus D68 | viral replication | RD, US/MO/14-18947 | 0.03 µM | relative to: untreated | plaque area | 105% and 89.5% |
| NC[C@H]1O[C@H](O[C@H]2[C@H](O)[C@@H](O[C@H]3O[C@H](CO)[C@@H](O)[C@H](N)[C@H]3O)[C@H](N)C[C@@H]2N)[C@H](O)[C@@H](O)[C@@H]1O | Proteus vulgaris | – | CPCC 160013 | 8 µg per disc, 24 h, 37 °C | – | inhibition zone diameter | 15.4 mm |
| C[C@@H](O)[C@H]1C(=O)N2C(C(=O)O)=C(SCCN=CN)C[C@H]12 | Pseudomonas aeruginosa | – | BAA-2797, neutropenic mouse thigh infection | dose not given | – | bacterial load in thigh | 6.94 log CFU and 6.9 log CFU and 8.02 log CFU and 8.46 log CFU and 7.45 log CFU and 7.9 log CFU |
| CC(C)(C)c1cc(/C=C(\C#N)C(N)=S)cc(C(C)(C)C)c1O | Toxoplasma gondii | parasite growth | HFF, bradyzoite, glutamine-induced | – | – | EC90 | 4.69 µM |
| COC[C@H]1O[C@@H]2O[C@@H]3[C@@H](OC)[C@@H](OC)[C@@H](O[C@@H]4[C@@H](OC)[C@@H](OC)[C@@H](O[C@@H]5[C@@H](OC)[C@@H](OC)[C@@H](O[C@@H]6[C@@H](OC)[C@@H](OC)[C@@H](O[C@@H]7[C@@H](OC)[C@@H](OC)[C@@H](O[C@@H]1[C@@H](OC)[C@H]2OC)O[C@@H]7COC)O[C@@H]6COC)O[C@@H]5COC)O[C@@H]4COC)O[C@@H]3COC | Escherichia coli | LuxR reporter, antagonist | DH5α sensor strain | 20 µM, added: OHHL 200 nM | – | inhibition | 4 ± 12% |
| C[n+]1cc2c3c(ccc2c2ccc4cc5c(cc4c21)OCO5)OCO3 | Toxoplasma gondii | parasite growth, luciferase reporter | HFF, tachyzoite | 72 h | – | EC90 | 1.9 µM |
| COc1ccccc1C(=O)C#Cc1ccc(F)c(F)c1 | Pseudomonas aeruginosa | static biofilm | PA14 | 10 µM, 24 h | relative to: DMSO | biofilm formation | 78% |
| OC[C@H]1O[C@@H](O[C@@H]2[C@@H](O)[C@H](O[C@H]3[C@H](O)[C@@H](CO)OC(O)[C@@H]3O)O[C@H](CO)[C@H]2O)[C@H](O)[C@@H](O)[C@@H]1O (stereo partly shown) | Bacteroides uniformis | binding, ITC | – | pH 7.0, 25 °C, distal domain | – | ΔH | -22.5 kcal/mol |

| SMILES | organism | assay | test system | conditions | scale | endpoint | value |
| --- | --- | --- | --- | --- | --- | --- | --- |
| OC(C#Cc1ccc(F)c(F)c1)c1ccccc1Cl (stereo not shown) | Pseudomonas aeruginosa | static biofilm | PA14 | 10 µM, 24 h, static | relative to: DMSO | biofilm formation | 137% |
| O=C(O[C@]12C[C@H]3C[C@H](C[C@H](C3)C1)C2)c1ccc(NCc2cc(O)ccc2O)cc1 | Toxoplasma gondii | parasite growth, luciferase reporter | HFF, tachyzoite | 72 h | – | EC50 | 6.57 µM |
| OC[C@H]1O[C@@H](O[C@@H]2[C@@H](O)[C@H](O[C@@H]3[C@@H](O)[C@H](O[C@@H]4[C@@H](O)[C@H](O[C@@H]5[C@@H](O)[C@H](O[C@H]6[C@H](O)[C@@H](CO)OC(O)[C@@H]6O)O[C@H](CO)[C@H]5O)O[C@H](CO)[C@H]4O)O[C@H](CO)[C@H]3O)O[C@H](CO)[C@H]2O)[C@H](O)[C@@H](O)[C@@H]1O (stereo partly shown) | Bacteroides uniformis | binding, ITC | – | pH 7.0, 25 °C, distal domain | – | -TΔS | 19.2 kcal/mol |
| O=C1c2ccccc2C(=O)c2c(NCCc3ccc(O)cc3)ccc(NCCc3ccc(O)cc3)c21 | Toxoplasma gondii | parasite growth, luciferase reporter | HFF host cells, tachyzoites | 72 h | – | EC50 | 3.89 µM |
| Cc1ccc(Nc2cnnc3cc(-c4cnc(N5CCCN(C)CC5)nc4)ccc23)cn1 | Leishmania donovani | – | B10R cells | – | – | EC50 | 1.7 µM |
| O=C(/C=C/c1ccc(O)c(O)c1)O[C@H]1[C@H](O)C[C@](O)(C(=O)O)C[C@H]1O | HIV-1 | viral infection | TZM-bl, BaL (CCR5-tropic) | 48 h | – | IC50 | > 100 µM |
| COc1cc(C#CC(=O)c2ccccc2OC)ccc1O | Pseudomonas aeruginosa | RT-qPCR, refers to: rhlA | biofilm cells | 10 µM, 24 h | relative to: untreated | mRNA level | 47% |
| OC[C@H]1O[C@@H](O[C@@H]2[C@@H](O)[C@H](O[C@@H]3[C@@H](O)[C@H](O[C@@H]4[C@@H](O)[C@H](O[C@H]5[C@H](O)[C@@H](CO)OC(O)[C@@H]5O)O[C@H](CO)[C@H]4O)O[C@H](CO)[C@H]3O)O[C@H](CO)[C@H]2O)[C@H](O)[C@@H](O)[C@@H]1O (stereo partly shown) | Bacteroides uniformis | binding, ITC | – | pH 7.0, 25 °C, middle domain | – | -TΔS | 16.3 kcal/mol |
| CCc1nc(N)nc(N)c1-c1ccc(Cl)cc1 | Toxoplasma gondii | – | ME49, lethally infected mice | intraperitoneal, 5 mg/kg daily for 10 days | – | cured animals | 90 to 100% |
| N=C(N)c1ccc(OCc2cc(Br)cc(COc3ccc(C(=N)N)cc3)c2)cc1 | Escherichia coli | – | BW25113 | concentration not given, lowest-FICI combination, added: novobiocin | – | MIC in combination | 12.5 µg/mL |
| Cl.Cl.NCc1ccc(-c2nc(-c3ccc(O[C@@H]4CCNC4)cc3)no2)cc1 | Clostridioides difficile | spore germination | ATCC 43255 | 45 µM | – | activity | inactive |
| OC(C#Cc1ccc(F)c(F)c1)c1cccc(Cl)c1 (stereo not shown) | Pseudomonas aeruginosa | static biofilm | PA14 | 10 µM, 24 h, static | relative to: DMSO | biofilm formation | 136% |
| OC(Cn1cncn1)(Cn1cncn1)c1ccc(F)cc1F | Cryptococcus neoformans | – | – | concentration not given | – | biofilm inhibition | no effect |
| C(=N\Nc1ccccc1)/c1ccc(-c2ccc(/C=N/Nc3ccccc3)cc2)cc1 | Nakaseomyces glabratus | – | ATCC 2001 | – | relative to: mammalian CC50 over MIC | selectivity index | < 0.6 |
| CCN(CC)CCCC(C)Nc1ccnc2cc(Cl)ccc12 (stereo not shown) | hepatitis E virus | viral replication, Renilla luciferase replicon | S10-3 replicon, genotype 1 | 0.06 µM, 48 h | – | inhibition | 23.1% |
| O=[N+]([O-])c1ccc(-c2nc(-c3ccc(OC4CCCC4)cc3)no2)cc1 | Clostridioides difficile | spore germination | ATCC 43255 | 45 µM | – | activity | inactive |
| O=C(C#Cc1ccc(F)c(F)c1)c1cccc(Cl)c1 | Pseudomonas aeruginosa | static biofilm | PA14 | 10 µM, 24 h | relative to: DMSO | biofilm formation | 56% |
| CCCC(=O)OCSc1ccccc1C(=O)NCCOc1ccnc2ccc(C)cc12 | HIV-1 | virus-induced cytopathic effect, inhibitor, XTT | CEM-SS, RF | 6 days | – | EC50 | 4.41 ± 3.41 µM |
| Cc1ccc(C(=O)N(CCCN)[C@@H](c2oc3cc(Cl)ccc3c(=O)c2Cc2ccccc2)C(C)C)cc1 | Toxoplasma gondii | parasite growth | HFF, bradyzoite, glutamine-induced | – | – | EC90 | 7.24 µM |
| CC[C@H](C)CCCCC(=O)N[C@@H](CCN)C(=O)N[C@H](C(=O)N[C@@H](CCN)C(=O)N[C@H]1CCNC(=O)[C@H]([C@@H](C)O)NC(=O)[C@H](CCN)NC(=O)[C@H](CCN)NC(=O)[C@H](CC(C)C)NC(=O)[C@@H](CC(C)C)NC(=O)[C@H](CCN)NC1=O)[C@@H](C)O | Pseudomonas aeruginosa | broth microdilution | ATCC 27736, cation-adjusted Mueller-Hinton broth | – | – | MIC | 0.214 µM |
| CC(C)(C)c1ccc(S(=O)(=O)/C=C/C#N)cc1 | Toxoplasma gondii | parasite growth | HFF, bradyzoite, alkaline-induced | – | – | EC90 | 11.4 µM |
| N#Cc1cc(-c2nc3ccccc3s2)c(=O)n(NS(=O)(=O)c2ccccc2)c1N | human adenovirus 7 | viral replication, plaque | HEp-2 | non-toxic dose, mean of three titres | – | plaque reduction | 50% |
| Oc1ccc2c(c1)OC[C@]1(O)Cc3cc(O)c(O)cc3[C@H]21 | Toxoplasma gondii | parasite growth, luciferase reporter | HFF, tachyzoite | 72 h | – | EC50 | 30.4 µM |
| Cc1ncc([N+](=O)[O-])n1CCO | Clostridioides difficile | agar dilution anaerobic | 3584 | 48 h | – | MIC | 0.5 µg/mL |

A few entries again:
| SMILES | organism | assay | test system | conditions | scale | endpoint | value |
| --- | --- | --- | --- | --- | --- | --- | --- |
| Oc1ccc2c(c1)OC[C@]1(O)Cc3cc(O)c(O)cc3[C@H]21 | Toxoplasma gondii | parasite growth, luciferase reporter | HFF, tachyzoite | 72 h | – | EC50 | 30.4 µM |
| OC(Cn1cncn1)(Cn1cncn1)c1ccc(F)cc1F | Cryptococcus neoformans | – | – | concentration not given | – | biofilm inhibition | no effect |
| C(=N\Nc1ccccc1)/c1ccc(-c2ccc(/C=N/Nc3ccccc3)cc2)cc1 | Nakaseomyces glabratus | – | ATCC 2001 | – | relative to: mammalian CC50 over MIC | selectivity index | < 0.6 |
